# Measurements of several laboratories.
# Parts stem from different laboratories: compare values within a part only.
# Chain of UniProt Q9UM73 (whole entry, unmodified, looked up): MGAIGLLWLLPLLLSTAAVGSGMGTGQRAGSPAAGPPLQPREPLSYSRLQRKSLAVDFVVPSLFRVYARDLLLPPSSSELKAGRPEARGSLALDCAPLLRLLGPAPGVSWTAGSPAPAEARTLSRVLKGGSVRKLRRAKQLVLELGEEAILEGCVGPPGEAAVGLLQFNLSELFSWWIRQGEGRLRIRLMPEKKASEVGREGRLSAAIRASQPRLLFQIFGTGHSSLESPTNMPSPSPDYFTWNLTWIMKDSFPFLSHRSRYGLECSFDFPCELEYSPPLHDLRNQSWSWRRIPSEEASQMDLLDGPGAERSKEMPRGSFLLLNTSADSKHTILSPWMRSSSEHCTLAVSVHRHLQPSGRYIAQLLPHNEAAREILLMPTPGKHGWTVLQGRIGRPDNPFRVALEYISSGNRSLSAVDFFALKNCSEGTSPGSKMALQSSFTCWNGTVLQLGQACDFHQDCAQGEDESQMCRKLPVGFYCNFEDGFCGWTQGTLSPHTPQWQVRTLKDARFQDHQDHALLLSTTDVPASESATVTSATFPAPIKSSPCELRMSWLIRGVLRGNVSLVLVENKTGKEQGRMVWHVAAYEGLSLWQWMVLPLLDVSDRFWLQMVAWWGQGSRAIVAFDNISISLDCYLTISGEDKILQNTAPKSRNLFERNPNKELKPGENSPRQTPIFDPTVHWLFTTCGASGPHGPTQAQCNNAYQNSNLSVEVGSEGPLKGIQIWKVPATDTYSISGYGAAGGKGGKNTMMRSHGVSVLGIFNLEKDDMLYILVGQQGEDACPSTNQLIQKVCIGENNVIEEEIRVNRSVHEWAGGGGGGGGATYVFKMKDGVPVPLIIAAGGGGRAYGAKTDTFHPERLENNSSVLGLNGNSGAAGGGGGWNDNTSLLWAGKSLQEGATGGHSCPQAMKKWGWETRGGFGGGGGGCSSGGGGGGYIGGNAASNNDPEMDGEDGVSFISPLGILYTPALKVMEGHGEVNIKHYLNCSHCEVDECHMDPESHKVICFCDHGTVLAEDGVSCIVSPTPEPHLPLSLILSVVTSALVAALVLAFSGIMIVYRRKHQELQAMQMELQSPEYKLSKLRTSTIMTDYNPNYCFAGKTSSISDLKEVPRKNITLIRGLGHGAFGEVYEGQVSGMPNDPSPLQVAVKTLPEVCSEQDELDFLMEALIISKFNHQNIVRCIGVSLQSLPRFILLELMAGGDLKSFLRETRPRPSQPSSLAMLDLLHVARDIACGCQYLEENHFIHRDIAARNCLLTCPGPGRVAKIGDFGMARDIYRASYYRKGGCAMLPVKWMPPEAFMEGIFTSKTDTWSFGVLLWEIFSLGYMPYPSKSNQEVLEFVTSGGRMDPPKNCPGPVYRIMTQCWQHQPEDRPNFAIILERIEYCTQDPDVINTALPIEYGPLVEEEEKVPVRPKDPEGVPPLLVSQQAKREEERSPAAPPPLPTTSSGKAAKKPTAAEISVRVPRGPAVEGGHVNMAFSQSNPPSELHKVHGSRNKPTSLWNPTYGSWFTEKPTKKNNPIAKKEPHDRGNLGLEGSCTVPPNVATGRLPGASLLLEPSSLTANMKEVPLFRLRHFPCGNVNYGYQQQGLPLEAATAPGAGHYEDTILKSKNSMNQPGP
# Chain of UniProt P43403 (whole entry, looked up): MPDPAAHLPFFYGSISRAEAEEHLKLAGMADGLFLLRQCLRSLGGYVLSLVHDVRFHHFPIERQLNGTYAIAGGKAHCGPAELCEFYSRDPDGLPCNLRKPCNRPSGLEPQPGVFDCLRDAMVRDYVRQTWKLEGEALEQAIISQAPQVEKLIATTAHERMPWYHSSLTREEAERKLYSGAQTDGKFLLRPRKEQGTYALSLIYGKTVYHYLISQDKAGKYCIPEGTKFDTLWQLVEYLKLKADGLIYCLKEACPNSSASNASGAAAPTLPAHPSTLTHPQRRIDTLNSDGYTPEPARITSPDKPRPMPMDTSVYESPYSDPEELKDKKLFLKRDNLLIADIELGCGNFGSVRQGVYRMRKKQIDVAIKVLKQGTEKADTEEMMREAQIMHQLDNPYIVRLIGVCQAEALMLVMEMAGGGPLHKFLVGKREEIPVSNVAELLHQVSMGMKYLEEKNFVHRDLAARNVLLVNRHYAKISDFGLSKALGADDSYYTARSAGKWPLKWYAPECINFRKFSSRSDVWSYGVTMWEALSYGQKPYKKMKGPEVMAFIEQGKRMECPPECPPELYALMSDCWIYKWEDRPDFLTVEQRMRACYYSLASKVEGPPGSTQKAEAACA
# Chain of UniProt P42336 (whole entry, unmodified, looked up): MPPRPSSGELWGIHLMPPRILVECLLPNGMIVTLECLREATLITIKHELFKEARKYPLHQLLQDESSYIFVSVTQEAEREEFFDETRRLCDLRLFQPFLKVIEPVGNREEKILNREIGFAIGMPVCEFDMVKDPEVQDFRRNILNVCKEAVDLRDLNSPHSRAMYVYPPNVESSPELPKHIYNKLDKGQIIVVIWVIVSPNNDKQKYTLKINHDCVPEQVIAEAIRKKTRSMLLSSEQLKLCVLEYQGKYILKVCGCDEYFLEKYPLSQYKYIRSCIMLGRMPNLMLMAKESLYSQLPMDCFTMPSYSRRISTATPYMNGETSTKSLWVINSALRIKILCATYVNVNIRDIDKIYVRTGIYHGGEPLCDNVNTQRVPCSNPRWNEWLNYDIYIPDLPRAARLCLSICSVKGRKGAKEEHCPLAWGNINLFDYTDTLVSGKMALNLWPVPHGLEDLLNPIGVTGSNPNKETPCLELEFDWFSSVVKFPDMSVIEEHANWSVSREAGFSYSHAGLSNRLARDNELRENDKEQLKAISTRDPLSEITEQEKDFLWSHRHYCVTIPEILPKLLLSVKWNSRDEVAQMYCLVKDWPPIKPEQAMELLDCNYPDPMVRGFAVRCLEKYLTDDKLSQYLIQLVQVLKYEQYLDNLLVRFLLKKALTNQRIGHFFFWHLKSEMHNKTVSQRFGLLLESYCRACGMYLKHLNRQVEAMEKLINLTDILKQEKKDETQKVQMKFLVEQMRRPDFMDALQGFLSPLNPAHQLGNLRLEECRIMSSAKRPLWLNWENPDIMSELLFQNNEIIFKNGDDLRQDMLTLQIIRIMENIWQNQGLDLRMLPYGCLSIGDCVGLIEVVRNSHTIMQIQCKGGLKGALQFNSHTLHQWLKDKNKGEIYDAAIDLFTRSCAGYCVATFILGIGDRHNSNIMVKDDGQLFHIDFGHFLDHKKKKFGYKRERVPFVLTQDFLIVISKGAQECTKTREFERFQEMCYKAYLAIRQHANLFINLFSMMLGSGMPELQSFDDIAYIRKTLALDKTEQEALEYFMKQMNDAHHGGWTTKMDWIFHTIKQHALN
# Chain of UniProt P42685 (whole entry, looked up): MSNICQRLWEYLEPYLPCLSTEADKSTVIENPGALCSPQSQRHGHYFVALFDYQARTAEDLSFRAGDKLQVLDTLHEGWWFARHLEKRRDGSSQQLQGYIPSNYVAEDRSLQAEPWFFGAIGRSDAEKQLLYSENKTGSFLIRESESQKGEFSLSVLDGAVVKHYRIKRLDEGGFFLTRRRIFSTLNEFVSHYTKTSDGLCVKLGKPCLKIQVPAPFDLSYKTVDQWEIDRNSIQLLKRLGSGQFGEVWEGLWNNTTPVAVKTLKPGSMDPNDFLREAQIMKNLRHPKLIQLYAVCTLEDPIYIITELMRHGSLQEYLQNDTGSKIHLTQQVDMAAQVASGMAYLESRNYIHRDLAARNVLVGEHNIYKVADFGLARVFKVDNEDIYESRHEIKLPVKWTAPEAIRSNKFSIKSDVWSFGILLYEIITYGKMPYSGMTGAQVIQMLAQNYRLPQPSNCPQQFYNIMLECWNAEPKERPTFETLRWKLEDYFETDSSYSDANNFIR
# Chain of UniProt P36897 (whole entry, looked up): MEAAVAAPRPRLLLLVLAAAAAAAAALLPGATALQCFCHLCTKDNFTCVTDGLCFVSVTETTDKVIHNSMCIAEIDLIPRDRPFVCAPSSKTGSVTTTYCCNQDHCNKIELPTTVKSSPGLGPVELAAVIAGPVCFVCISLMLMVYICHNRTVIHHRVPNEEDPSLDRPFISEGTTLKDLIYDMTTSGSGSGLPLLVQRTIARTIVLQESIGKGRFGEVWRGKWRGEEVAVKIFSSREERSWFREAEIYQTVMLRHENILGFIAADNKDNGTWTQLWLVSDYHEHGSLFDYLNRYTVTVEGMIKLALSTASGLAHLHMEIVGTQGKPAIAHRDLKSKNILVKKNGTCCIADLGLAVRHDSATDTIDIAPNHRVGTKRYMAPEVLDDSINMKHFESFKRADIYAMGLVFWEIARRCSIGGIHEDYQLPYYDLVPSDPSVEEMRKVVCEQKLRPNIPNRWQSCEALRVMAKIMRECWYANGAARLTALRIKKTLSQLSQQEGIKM

# Study 1 — observed: cell-free assay; technique: competition with immobilised ligand; tested at: 1 µM
# SMILES: CC1=C(C#N)C(c2ccc3c(c2)c(NC(=O)c2ccccc2C)nn3C)C(C#N)=C(C)N1
target,remaining binding [%]
"HIPK4 (Homo sapiens, UniProt Q8NE63)",80
"KIT (Homo sapiens, UniProt P10721, V559D)",100
"eIF-2-alpha kinase GCN2, C-terminal kinase domain (EIF2AK4, Homo sapiens, UniProt Q9P2K8, S808G)",61
"FRK (Homo sapiens, UniProt P42685)",100
"MUSK (Homo sapiens, UniProt O15146)",98
"COQ8A (Homo sapiens, UniProt Q8NI60)",100
"ALK (Homo sapiens, UniProt Q9UM73, L1196M)",80
"IKBKB (Homo sapiens, UniProt O14920)",95
"STK17A (Homo sapiens, UniProt Q9UEE5)",82
"ZAP70 (Homo sapiens, UniProt P43403)",90
"CAMK1G (Homo sapiens, UniProt Q96NX5)",99
"LRRK2 (Homo sapiens, UniProt Q5S007)",88
"EIF2AK1 (Homo sapiens, UniProt Q9BQI3)",100
"MAP3K12 (Homo sapiens, UniProt Q12852)",80
"PIK3CA (Homo sapiens, UniProt P42336, I800L)",93
"EPHA4 (Homo sapiens, UniProt P54764)",93
"NTRK3 (Homo sapiens, UniProt Q16288)",83
"TGFBR1 (Homo sapiens, UniProt P36897)",100
"CHEK2 (Homo sapiens, UniProt O96017)",74
"Insulin receptor (INSR, Homo sapiens, UniProt P06213)",100
"PIP4K2C (Homo sapiens, UniProt Q8TBX8)",92
"PRKCQ (Homo sapiens, UniProt Q04759)",55
"Ribosomal protein S6 kinase alpha-6, N-terminal kinase domain (RPS6KA6, Homo sapiens, UniProt Q9UK32)",100

# Study 2 — technique: phase 2a trial; species: idiopathic pulmonary fibrosis patients
# SMILES: CC(C)n1cnc(-c2ccc(F)cc2)c1-c1ncc(C(=O)Nc2ccc(N3CCN(C)CC3)cc2)[nH]1
conditions,patients with headache
"30 mg once daily, grade 4 emergent event",0%
"all arms pooled, grade 2 emergent event",0%
"30 mg once daily, grade 3 emergent event",0%
"60 mg once daily, grade 5 emergent event",0%
"all arms pooled, grade 4 emergent event",0%
"all arms pooled, grade 5 emergent event",0%
"30 mg once daily, grade 1 emergent event",0%
"30 mg once daily, grade 2 emergent event",0%
"all arms pooled, grade 3 emergent event",0%

# Study 3 — observed: enzyme activity; mode: inhibitor; tested at: 0.5 µM; relative to: control
# Target: Serine/threonine-protein kinase BRSK2 (BRSK2, Homo sapiens, UniProt Q8IWQ3)
# Chain of UniProt Q8IWQ3 (whole entry, looked up): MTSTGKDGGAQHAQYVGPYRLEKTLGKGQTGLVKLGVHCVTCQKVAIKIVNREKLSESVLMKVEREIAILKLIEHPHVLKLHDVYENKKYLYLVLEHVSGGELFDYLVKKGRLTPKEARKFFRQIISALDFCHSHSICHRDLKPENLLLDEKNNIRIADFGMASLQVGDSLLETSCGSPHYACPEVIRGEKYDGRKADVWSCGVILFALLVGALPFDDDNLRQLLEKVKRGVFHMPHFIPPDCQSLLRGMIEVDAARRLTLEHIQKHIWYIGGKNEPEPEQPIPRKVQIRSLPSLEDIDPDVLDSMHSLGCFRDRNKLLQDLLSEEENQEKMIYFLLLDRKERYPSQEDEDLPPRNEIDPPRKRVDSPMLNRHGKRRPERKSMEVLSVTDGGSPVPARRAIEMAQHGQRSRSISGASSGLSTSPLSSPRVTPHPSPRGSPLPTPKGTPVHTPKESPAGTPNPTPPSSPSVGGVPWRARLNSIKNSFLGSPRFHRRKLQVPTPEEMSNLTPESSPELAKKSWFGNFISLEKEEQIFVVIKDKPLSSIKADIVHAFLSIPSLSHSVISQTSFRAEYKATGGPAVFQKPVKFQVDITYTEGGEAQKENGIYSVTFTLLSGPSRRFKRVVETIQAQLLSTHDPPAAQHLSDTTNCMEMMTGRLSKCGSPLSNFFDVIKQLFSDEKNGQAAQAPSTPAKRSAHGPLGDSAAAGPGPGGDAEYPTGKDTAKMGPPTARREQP
SMILES,remaining activity [%]
O=C(NC(NC(=S)Nc1ccc(F)c([N+](=O)[O-])c1)C(Cl)(Cl)Cl)C(c1ccccc1)c1ccccc1 (centres unmarked),102
Nc1cccc(-c2cc3c(Oc4cccc(O)c4)ncnc3[nH]2)c1,86.9
O=C1c2ccccc2-c2n[nH]c3cccc1c23,55.8
Cn1nc2c3c(cccc31)C(=O)c1ccccc1-2,96.4
COc1cc2ncnc(Nc3cccc(Cl)c3)c2cc1OC,96.7
N#C/C(=C\c1ccc(O)c(O)c1)C(=O)NCc1ccccc1,99.3
CN([C@@H](Cc1ccc(OS(=O)(=O)c2cccc3cnccc23)cc1)C(=O)N1CCN(c2ccccc2)CC1)S(=O)(=O)c1cccc2cnccc12,100
N#Cc1c(NC(=O)c2cccc3ccccc23)sc2c1CCCC2,100
CCN(CC)C(=O)c1ccc(Nc2nc(OCC3CCCCC3)c3[nH]cnc3n2)cc1,82.5
COc1cc2c(cc1OC)-c1[nH]nc(Nc3cccc(F)c3)c1C2,92.1
Cc1cn(-c2cc(NC(=O)c3ccc(C)c(Nc4nccc(-c5cccnc5)n4)c3)cc(C(F)(F)F)c2)cn1,101
Cc1cc2ncc(-c3ccccc3)nc2cc1C,102
Ic1cccc(CSc2nnc(-c3ccncc3)o2)c1,99.3
c1ccc(-c2cnc(Nc3ccc(OCCN4CCCC4)cc3)s2)cc1,79.3
COc1cc2ncnc(Nc3ccc(O)c(Br)c3)c2cc1OC,80.1
CCN(CC)CCNC(=O)c1c(C)[nH]c(/C=C2\C(=O)Nc3ccc(Cl)cc32)c1C,53.7
CCN(CC)CCNC(=O)c1c(C)[nH]c(/C=C2\C(=O)Nc3ccc(F)cc32)c1C,54.5
O=C1C(Cl)=C(N2C(=O)CCC2=O)C(=O)c2ccccc21,100
CN(C)C[C@H]1CCn2c(c(C3=C(c4cn(C)c5ccccc45)C(=O)NC3=O)c3ccccc32)C1,102
O=c1cc(-c2cccc3c2Sc2ccccc2S3)oc(N2CCOCC2)c1,101
O=C(Nc1cccc(Nc2nccc(Nc3cccc(C(F)(F)F)c3)n2)c1)C1CC1,89.3
C[C@@H]1CCN(C(=O)CC#N)C[C@@H]1N(C)c1ncnc2[nH]ccc12,86.9
c1ccc(-c2[nH]ncc2-c2ccnc3ccccc23)nc1,101
CCOc1nc(NC(=O)Cc2cc(OC)ccc2OC)cc(N)c1C#N,103
Cc1nc2cc3nc(-c4cccs4)cnc3cc2n1C,98

# Study 4 — species: human; medium: microsomes or S9; tested at: 2 µM; time: 0.5 h
Structure (SMILES),remaining compound [%]
CCCC1(Cn2ccnc2-c2nccn2C)CCC1,0.145
COc1ccc2c(C)c(C(=O)OC(C)C)n(C)c2c1,38
COc1cc(=O)[nH]cc1C(=O)N1CCCN(C)c2ccccc21,69.2
C[C@H](O)CNS(=O)(=O)C1CCc2cc(Br)ccc2C1 (some centres unmarked),89
CCCc1nc(C)c2c(Cl)nc3ccc(OC)nc3n12,8.42
Cc1nn(-c2ccc(Cl)cc2)c2[nH]c(=O)c(CNCC3CCCO3)cc12 (centres unmarked),90.4
O=C(COc1ncnc2scc(-c3ccccc3)c12)c1ccc(S(=O)(=O)N2CCCC2)cc1,1.35
Cc1noc(/C=C/c2ccccc2F)c1S(=O)(=O)N1CCC(C(=O)Nc2ccc(S(N)(=O)=O)cc2)CC1,85
Cc1n[nH]c(CN2CCOc3cc(F)c(Br)cc32)n1,74.8
CC1CCCC(C)N1C(=O)Cn1cnc2cc3c(cc21)OCCO3 (centres unmarked),58.8
CC(C)c1cc(C(=O)N2CCC(Oc3ccc(-c4ccc(S(C)(=O)=O)cc4F)nc3)CC2)no1,21.9
COC(=O)c1cc(NC(=O)CC2NCCNC2=O)cc(C(=O)OC)c1 (centres unmarked),44
O=c1[nH]nc(CNS(=O)(=O)c2cc(Cl)sc2Cl)[nH]1,78.2
Cc1cc(=O)n2nc(-c3cccs3)nc2n1CC(=O)N1CCN(C)CC1,> 99
